Measurements from different studies.
A part holds a random share of what one study measured. Substitutions count along the parent as printed.

Study 1 — method: protein binding microarray; form: double-stranded DNA, one strand shown; medium: in vitro; concentration: not given; baseline: not given; direction: higher = stronger binding
Target: Histone acetyltransferase KAT6A, winged helix 2, GST fusion (KAT6A, Homo sapiens, UniProt Q92794, residues 85-181)
Notes: 8-mer, flanks averaged, mean of 2 arrays, mostly near background
Target sequence (chain): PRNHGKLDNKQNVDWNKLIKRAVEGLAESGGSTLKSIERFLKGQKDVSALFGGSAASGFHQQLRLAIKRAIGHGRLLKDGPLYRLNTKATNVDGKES
`CAGTGAAC` gave an E-score of -0.00361.
With `AGCAGCTC` the E-score was -0.0504.
`CTCTCCCA` has an E-score of -0.0658.
With `ATTTGTTA` the E-score was -0.0341.
The E-score of `GTACTAGA` is reported as 0.00149.
`AAAGGCAC` has an E-score of 0.0861.
`TCGGACAA` has an E-score of 0.0845.

Study 2 — method: DHFR PCA, deep sequencing; medium: yeast; with: (+)-ABA 0 µM; baseline: wild-type fitted maximum; direction: higher = stronger binding
Target: ABI1, truncated, D143A, DHFR fusion (Arabidopsis thaliana)
Notes: methotrexate growth selection, single substitutions
Starting sequence: PYL1, truncated, DHFR fusion (Arabidopsis thaliana); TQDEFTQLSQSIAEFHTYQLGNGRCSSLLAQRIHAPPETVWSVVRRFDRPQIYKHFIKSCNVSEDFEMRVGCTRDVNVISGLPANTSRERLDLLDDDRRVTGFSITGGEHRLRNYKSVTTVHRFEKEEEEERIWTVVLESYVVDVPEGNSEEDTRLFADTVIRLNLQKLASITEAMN
For `F56G`, “relative binding score” read -0.876%.
`A158L` — result for “relative binding score”: 43.2%.
`E152R` — result for “relative binding score”: 0.397%.
`I172E` — result for “relative binding score”: -8.45%.
Under “relative binding score”, `Y141E` is recorded as -8.09%.
For `R132G`, “relative binding score” read 51.6%.

Study 3 — method: RNA Bind-n-Seq; form: RNA; medium: in vitro; concentration: 365 nM; baseline: no-protein control; direction: higher = stronger binding
Target: RNA binding protein fox-1 homolog 2, RRM domain, GST-SBP tag (RBFOX2, Homo sapiens, UniProt O43251-10, residues 100-194)
Notes: natural RNA segment, single round, ends assumed
Construct (chain): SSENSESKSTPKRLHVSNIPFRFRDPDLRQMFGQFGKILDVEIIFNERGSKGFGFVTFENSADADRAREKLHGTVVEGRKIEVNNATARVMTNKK
`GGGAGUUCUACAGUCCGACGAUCGGUGGCCUCCAUGGCACCCACUCUCCCAGUUCCUAUGCAGGUUAUCCCCUGUGGUUUCUCCCCACAUGCCUACCCUACCUAGGGCUGAGGGGGAGGGGCUCUUGCUUUAAUGGAAUUCUCGGGUGCCAA`: “RBNS enrichment (R)” 0.598.
Under “RBNS enrichment (R)”, `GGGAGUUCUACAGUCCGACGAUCCUUCUCCUUGUGAAGCCAUAAGCCUGACUUCCCCUCAGCCCUGCUCCCUCAUUUUCUCUCAUCAUGUAGGAAAGAGUGGGACCCCCUCCCAACCCCUUUCUGUUAAAGCCUGGAAUUCUCGGGUGCCAA` is recorded as 0.625.
`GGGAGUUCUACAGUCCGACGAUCAUGAACCCUGCCCCACUCCUGUCAGCCCCUCAUCAGCCUUUUCAGCAGGUUCCAGUGCCUGACUUGGGAUAGGACUGAGUGGUAGGAGGAGGGGGAGUGGAGGGGCAUAGUGGAAUUCUCGGGUGCCAA` — result for “RBNS enrichment (R)”: 0.784.
For `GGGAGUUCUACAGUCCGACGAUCCACUGAGGUCAUUGUUUAGAGCAGAUCUCAAGCAGCCGUUUGGCCACGCCAUAUCCUUUGUGGAGCAUAGUGGGUUAUCUAUCUGUCUGUCUGUCUAUGUAUCUGUCUAUUGGAAUUCUCGGGUGCCAA`, “RBNS enrichment (R)” read 0.318.
`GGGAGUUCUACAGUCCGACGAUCCAGCUCCCAUGCCACAGAGGGACAGACCCCUGCUGUCCUGCCCUCUUGCCACUGGUGAGAGAAGGCCCUUGUCUCCUCAGACUAGGAGGUCUCCCACAGUGACAGCUCCUUGGAAUUCUCGGGUGCCAA`: “RBNS enrichment (R)” 0.197.
For `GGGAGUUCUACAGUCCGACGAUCCCUCGUAGAGGAGGUAUACGUGGCUGCCUUAGUAUUCUGUUCCUCAUGAUUAUUUUAGAAACUGGAUUUUAAAAAGUCUUUUAGAGUUUCACAACAAGGAGAAGCCACAGUGGAAUUCUCGGGUGCCAA`, “RBNS enrichment (R)” read 0.405.
`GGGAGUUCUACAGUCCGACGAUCCGAGGGUCCCCUGUGGCACCUAGCAUGGUGCACAGCACAUUAGAAGUGCUCAAAAACAUCUGAUGACUGACUAAAGAUGCUAGGCGUGACACCGUUCCCUCCAAAAGCAGUGGAAUUCUCGGGUGCCAA` — result for “RBNS enrichment (R)”: 0.209.
`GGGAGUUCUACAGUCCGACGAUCCGCUCUGCGGCUCCUCCCACCUCCAUCUUCUCCUAUCAUCGGGCUUAUUAUCCUCUCUCUUGGCUUCUCUCUUUCUGAUAUCAGUUCCUGAAGCCUCUCACUAACCCCUAUGGAAUUCUCGGGUGCCAA` — result for “RBNS enrichment (R)”: 0.722.
For `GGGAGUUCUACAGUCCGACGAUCGCAUCAUGCCACUUGGAACUUAUUGGAACUGGCCCGGGAGACUCUGCAGUCUGCGCCGUUUGAAAACCCUGAGAAAGAGAUGCCACCUCAACUUGAAUCAUGACAGCCCAUGGAAUUCUCGGGUGCCAA`, “RBNS enrichment (R)” read 0.723.

Single results of other studies
`PhoQ, residues 284 288 289 292 302 303 SSTLLI` gave a fold induction of 12.7 (PhoP, residues 12 14 15 18 19 MHTVL (Escherichia coli, UniProt P23836); Sort-seq, measured: YFP reporter; E. coli; PhoQ-PhoP variant library, with: 10 µM Mg2+; baseline: high Mg2+ state, higher = stronger signaling).

For quick reference, copied from above (study 2):
`E152R` — result for “relative binding score”: 0.397%.
For `R132G`, “relative binding score” read 51.6%.
`A158L` — result for “relative binding score”: 43.2%.
